Measurements pooled from the literature.
Parts stem from different laboratories: compare values within a part only.

Block 1
Target: RNA binding protein fox-1 homolog 2, RRM domain, GST-SBP tag (RBFOX2, Homo sapiens, UniProt O43251-10, residues 100-194)
Method: RNA Bind-n-Seq
Form: RNA
Matrix: in vitro
Concentration: 365 nM
Setting: natural RNA segment, single round, ends assumed
Relative to: no-protein control
Reading: higher = stronger binding
Target sequence (chain): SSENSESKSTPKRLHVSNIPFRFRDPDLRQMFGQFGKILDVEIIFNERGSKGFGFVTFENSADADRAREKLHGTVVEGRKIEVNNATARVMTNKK
`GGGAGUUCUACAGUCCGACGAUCCCUGUGUGUGCUGCUUGCUCCUGUUCUGUUCGCUUGCUCCCGUUCCGUUCGGCUUUUGCUUUGCGUUAGGGUGAAGACCCUAGCGUCCAGCUCCCCUCAACGCUAUAUUUUGGAAUUCUCGGGUGCCAA`: “RBNS enrichment (R)” 0.556.
`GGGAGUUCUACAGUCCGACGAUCGUCAAGCUUCAUGAGUUAAAUUUAACUGUUAGAGAGGAGAAAAGCAUAGCAGUCAUUUGGAACGAUCUCGUGGGGUGGGACUAAGCCAUAAUGAUGUGUCUGGCUCAAGCUGGAAUUCUCGGGUGCCAA`: “RBNS enrichment (R)” 1.23.
`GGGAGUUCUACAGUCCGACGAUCCAGGAGAAUUACCCCUAUACCUGAGCCUCAACCUUCUGGGGGAAAGGGAACUAGAUAACAUACUUCUUACUUGUCUGUACAGUACCUUGUUGCAGAUGGGUGAUAUAUAAUGGAAUUCUCGGGUGCCAA` — result for “RBNS enrichment (R)”: 0.398.
`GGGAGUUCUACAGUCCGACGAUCUGGCUGGCCUAAUCCCCAUGAUGAUUCCAGAAUAAUCUUGCAAAUUGGAUCAUGGCAGGUGCUUGUUCAAAGCCCUUUCUUGUUGCCUCUGCCAUCUGGGUGAAGUCUAGUGGAAUUCUCGGGUGCCAA` — result for “RBNS enrichment (R)”: 0.303.
For `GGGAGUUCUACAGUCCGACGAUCCCCCGUGGGGAAAUAAACUGACUUUGGACUGCUUCAGUUUCUGCCAUCUUCCAUGACUGCUUCUAUUCCUGCCUUCCAUGGCAGUGUCCACAGGAGAUAGGCAAGAAGAUUGGAAUUCUCGGGUGCCAA`, “RBNS enrichment (R)” read 0.318.
Under “RBNS enrichment (R)”, `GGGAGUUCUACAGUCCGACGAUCCUGGGCGAGUCACAGAGUUUGCUCUUAAGUAGCAAGAGACCAAACUCACCUUGGGUGUAGGGGUCAGUAGCAGCCACUCGCCCUUGCUCCAGUCCUUUGGGAGCCUGUCAUGGAAUUCUCGGGUGCCAA` is recorded as 0.318.
Under “RBNS enrichment (R)”, `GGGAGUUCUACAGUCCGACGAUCUGGCGCCCUCAGAGACCCUGGCAUUGGCUGAGCCAAUGUUGGGCCUUCUGAAAAGAAGCCCAGGGGAUGGGGCCUUCAAGGUGCCGGUUUGGAGUUCAAAUCCUGCUCCUUGGAAUUCUCGGGUGCCAA` is recorded as 0.168.
`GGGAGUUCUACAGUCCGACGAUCGAGUCUGGGUGCUUGUCACCUAGCCUGACAUUCUGAGUUCAAUCCCUGGGACCCGCCUGAUAGGAGAGAACUGACUUCUACAAGUUGUCCUCUGACCCAAUAGAUUUACAUGGAAUUCUCGGGUGCCAA`: “RBNS enrichment (R)” 0.243.

Block 2
Target: Sal-like protein 4, full length isoform B (SALL4, Homo sapiens, UniProt Q9UJQ4-2, residues 1-616)
Method: universal PBM
Form: double-stranded DNA, one strand shown
Matrix: in vitro
Concentration: not given
Setting: 8-mer, flanks averaged, mean of replicates
Reading: higher = stronger binding
For `CTCTTCAC`, the E-score was -0.0282.
With `CAATGCCG` the E-score was -0.109.
`ACCCGATA` gave an E-score of -0.0661.
`GTACTTTA` gave an E-score of 0.235.
`AGTCCGGA` has an E-score of -0.0966.
`ACAGACAA` gave an E-score of 0.234.
`GCACGCGA` gave an E-score of -0.205.
With `ACCGTTCT` the E-score was -0.128.
The E-score of `CTAGCTTC` is reported as -0.0104.
With `GGGTTCCA` the E-score was -0.272.
`GTTCACAA` has an E-score of 0.165.
With `CAGACAAC` the E-score was -0.0683.
`AAGTTACG` gave an E-score of 0.0946.
With `ATGGTAAC` the E-score was 0.176.
For `GGTAAGAC`, the E-score was -0.16.
With `AAAATGTC` the E-score was 0.251.
`ATATTTCG` gave an E-score of 0.417.
`CTGTAACC` has an E-score of 0.0575.
`GGGCGGGA` has an E-score of -0.264.
With `ACCACAAG` the E-score was -0.0603.
The E-score of `CCACTTGA` is reported as 0.0451.

Block 3
Target: Histone acetyltransferase KAT6A, both winged helices, GST fusion (KAT6A, Homo sapiens, UniProt Q92794, residues 1-181)
Method: protein binding microarray
Form: double-stranded DNA, one strand shown
Matrix: in vitro
Concentration: not given
Setting: 8-mer, flanks averaged, mean of 2 arrays, mostly near background
Relative to: not given
Reading: higher = stronger binding
Target sequence (chain): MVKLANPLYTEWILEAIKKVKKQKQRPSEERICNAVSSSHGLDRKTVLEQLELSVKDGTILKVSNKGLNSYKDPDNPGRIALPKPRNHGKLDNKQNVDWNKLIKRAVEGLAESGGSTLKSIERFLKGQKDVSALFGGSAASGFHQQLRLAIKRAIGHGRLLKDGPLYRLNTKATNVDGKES
The E-score of `CTTAGCGA` is reported as 0.0999.
`AGAGTTAA` gave an E-score of -0.271.
The E-score of `GTTTGACA` is reported as -0.0405.
The E-score of `ATCTATAG` is reported as -0.0605.
`CGGGCACC` gave an E-score of 0.234.
With `CAGCACTC` the E-score was -0.118.
With `TACACCCA` the E-score was -0.0731.
With `AGGACCAA` the E-score was -0.114.
For `ACCTAACC`, the E-score was 0.0256.
The E-score of `TACATGTA` is reported as -0.0788.
The E-score of `CCCCAGAA` is reported as -0.262.
The E-score of `CTTATCAA` is reported as -0.143.
For `GATTGGGA`, the E-score was -0.244.
`GCGAATAA` gave an E-score of 0.112.
`AAGCTGCA` gave an E-score of -0.0395.
`AATATGAA` has an E-score of -0.0221.
With `GGGGGCCA` the E-score was -0.00064.

Block 4
Target: Fragile X messenger ribonucleoprotein 1, C-terminal low-complexity region (Fmr1, Mus musculus, UniProt P35922)
Method: RNA Bind-n-Seq
Form: RNA
Matrix: in vitro
Concentration: 200 nM
Setting: whole 134-nt RNA, ends assumed
Added: 150 mM LiCl
Relative to: input library
Reading: higher = stronger binding
Library: 7-deaza-guanosine replaces G
`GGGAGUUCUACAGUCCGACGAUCCUGUGCUACACAUCGUAUGUACCGAAUCGGCCCCCCCGGGGCCCCCCCGGGCCCCCCCGGGAAAGUAUUAUGUUACGCCGUUCGGAUCUGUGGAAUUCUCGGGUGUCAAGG` gave a log2 enrichment of -1.86.
With `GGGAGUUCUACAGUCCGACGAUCGUCCUGUGCUACACAUCGUAUGUACCGAAUCGGAAAAAGGGAAAAAGGGGAAAAAGGGGAAAGUAUUAUGUUACGCCGUUCGGAUCUGCAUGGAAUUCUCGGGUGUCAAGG` the log2 enrichment was 0.644.
With `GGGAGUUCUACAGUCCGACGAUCUGGCCCUGGUGGCAUGCGGGGAGGAAGAGGUGGUCUCAUGGAUCGUGGUGGUCCCGGUGGAAUGUUCAGAGGUGGCCGUGGUGGAGACAGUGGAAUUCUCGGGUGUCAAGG` the log2 enrichment was 0.428.
`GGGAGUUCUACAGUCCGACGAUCAAGUCCUGUGCUACACAUCGUAUGUACCGAAUCGGGGAAAAGGGAAAAGGGAAAAGGAAAGUAUUAUGUUACGCCGUUCGGAUCUGCACUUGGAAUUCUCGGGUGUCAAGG` gave a log2 enrichment of 0.0241.
`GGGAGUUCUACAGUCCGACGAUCCACAGACAACACGCACCCACACAGACACAGAGGGAAGGGGUUGGGAUGGGGACAGGGUGCACAGCAGGGCGGGGUAGGACAAAAGCCCCUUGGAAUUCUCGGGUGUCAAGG` gave a log2 enrichment of -0.0808.
`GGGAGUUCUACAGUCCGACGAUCUGGGAGGUGGAUUUUGUUUAUUUUUUUAGCUCAUUUCCAGGGGUGGGAAUUUUUUUUUAAUAUGUGUCAUUAAUAAAGUUGUUUUUGAAAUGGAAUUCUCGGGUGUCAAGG` gave a log2 enrichment of -0.234.
The log2 enrichment of `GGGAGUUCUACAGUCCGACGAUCACCAUGCAGGUGGGCAUCUUUGGGAAGUGGGGCAGGGGGGGGAUAGGGAGGGGGGUAACACUUUGGGAACAGGUGGUCCCAGGUCGUUUCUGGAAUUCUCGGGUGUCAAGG` is reported as 1.43.
With `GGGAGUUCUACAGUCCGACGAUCUUUGCAGGGAGUGGUACGGGUAUCACUUUCCGGAGCUGGUGAAGAUCAUCAACGACAAUGCCACAUACUGCCGUCUUGCCCAGUUUAUUGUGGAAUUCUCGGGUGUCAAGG` the log2 enrichment was -0.587.

A few entries again (block 3):
With `TACACCCA` the E-score was -0.0731.
With `AGGACCAA` the E-score was -0.114.
For `ACCTAACC`, the E-score was 0.0256.
The E-score of `TACATGTA` is reported as -0.0788.
The E-score of `CCCCAGAA` is reported as -0.262.
The E-score of `CTTATCAA` is reported as -0.143.
For `GATTGGGA`, the E-score was -0.244.
`GCGAATAA` gave an E-score of 0.112.
`AAGCTGCA` gave an E-score of -0.0395.
